# Assay results pooled from the literature.
# Each numbered part is a random draw from the data of one study; scales do not carry over between parts. Positions count from the first letter of the parent shown.

# Study 1
# Target: Histone acetyltransferase KAT6A, both winged helices, GST fusion (KAT6A, Homo sapiens, UniProt Q92794, residues 1-181)
# Method: protein binding microarray
# Molecule type: double-stranded DNA, one strand shown
# Sample: in vitro
# Concentration: not given
# Setting: 8-mer, flanks averaged, mean of 2 arrays, mostly near background
# Reference: not given
# Reading: higher = stronger binding
# Target sequence (chain): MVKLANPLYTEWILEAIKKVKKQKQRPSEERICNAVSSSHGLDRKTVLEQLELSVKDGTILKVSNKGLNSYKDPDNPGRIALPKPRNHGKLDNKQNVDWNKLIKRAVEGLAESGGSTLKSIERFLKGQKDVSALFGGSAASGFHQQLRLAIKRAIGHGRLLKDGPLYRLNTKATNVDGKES
Sequence,E-score
CAAGGGCG,0.152
GGCCGAAC,0.118
GCGTAACA,0.0776
CACAGCGC,0.254
AAAGAATG,-0.0813
TGCTGTAA,-0.161
AGATGAAG,-0.219
TGCACTAA,-0.042
GAGTTCCA,-0.115
AAATAGTT,0.0122
GGAAGGCA,-0.0613
TAGGTCGA,0.0241
GAGTAAGA,-0.119
TACTAGTA,0.00161
CGTATGTC,0.129
TAGTTCAA,-0.127
CTACCTTC,-0.104
CGAGGTAG,-0.00272
CATCTAAC,-0.045
ATAGCGCC,0.212
CCCTAGCC,-0.0904
AGTTCTAC,-0.132
TGCAGGCA,-0.149
AAGCTGCT,0.0126
TCTAGCAA,-0.116

# Study 2
# Target: ABI1, truncated, D143A, DHFR fusion (Arabidopsis thaliana)
# Method: DHFR PCA, deep sequencing
# Sample: yeast
# Setting: methotrexate growth selection, single substitutions
# Added: (+)-ABA 0.11 µM
# Reference: wild-type fitted maximum
# Reading: higher = stronger binding
# Parent: PYL1, truncated, DHFR fusion (Arabidopsis thaliana); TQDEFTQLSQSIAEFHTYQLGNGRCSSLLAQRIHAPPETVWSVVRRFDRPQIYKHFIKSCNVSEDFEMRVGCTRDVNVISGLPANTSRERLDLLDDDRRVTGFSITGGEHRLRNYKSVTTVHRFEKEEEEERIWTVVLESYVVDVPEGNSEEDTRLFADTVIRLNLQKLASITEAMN; partner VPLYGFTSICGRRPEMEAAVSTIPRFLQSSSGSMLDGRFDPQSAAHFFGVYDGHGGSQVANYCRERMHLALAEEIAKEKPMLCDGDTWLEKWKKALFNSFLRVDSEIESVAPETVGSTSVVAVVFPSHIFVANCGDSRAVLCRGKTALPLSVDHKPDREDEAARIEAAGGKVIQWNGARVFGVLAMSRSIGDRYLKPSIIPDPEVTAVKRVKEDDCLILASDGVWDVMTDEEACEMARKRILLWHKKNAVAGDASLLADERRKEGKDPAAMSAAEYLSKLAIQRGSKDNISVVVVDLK
Substitution,relative binding score [%]
G107W,-0.621
V161M,73.6
I57P,0.475
T17G,-2.37
R69D,-4.22
F56H,-1.58
K58L,-1.48
I79L,6.58
R111D,5.16
I105D,-11.7
Q167P,6.01
V118D,-3.89
T17Q,5.67
V118G,1.02
R49T,21.2
R113E,4.98
N114H,10.2
R123C,17.7

# Study 3
# Target: CREB3L2, bZIP domain (human)
# Method: DHFR protein complementation
# Sample: yeast
# Setting: single substitutions, most at no-binding floor
# Reference: wild-type JUN-FOS pair
# Reading: higher = stronger binding
# Parent: JUN, bZIP domain (human); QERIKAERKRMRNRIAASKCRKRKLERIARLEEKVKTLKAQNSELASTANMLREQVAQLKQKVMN; partner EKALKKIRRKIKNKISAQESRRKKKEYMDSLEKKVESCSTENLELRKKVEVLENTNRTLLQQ
Substitution,binding fitness
K36L,-1.54 natural log
T37W,-1.47 natural log
T48C,-1.55 natural log
N42V,-1.45 natural log
L52V,-1.46 natural log
R30W,-1.37 natural log
A49Y,-1.14 natural log
L38F,-1.55 natural log
A46L,-1.53 natural log
E32K,-1.44 natural log
S43V,-1.46 natural log
L52G,-1.52 natural log
E44H,-1.47 natural log
I28E,-1.58 natural log
A40N,-1.47 natural log
K36P,-1.54 natural log
L52C,-1.56 natural log
A49T,-1.49 natural log
E33A,-1.55 natural log
V35S,-1.5 natural log
E32R,-1.45 natural log
A57H,-1.45 natural log
S43Q,-1.26 natural log
A49N,-1.42 natural log
M51S,-1.4 natural log

# Study 4
# Target: UBE2L3 UBC core domain (UniProt P68036)
# UniProt P68036, sequence (whole entry, looked up): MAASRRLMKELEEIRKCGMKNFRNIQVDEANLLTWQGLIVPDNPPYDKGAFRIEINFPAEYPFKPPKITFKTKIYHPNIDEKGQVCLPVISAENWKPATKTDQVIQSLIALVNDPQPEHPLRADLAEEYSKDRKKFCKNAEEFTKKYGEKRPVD
# Method: yeast two-hybrid
# Sample: yeast
# Setting: mostly zero background
# Reference: not given
# Reading: higher = stronger interaction
# B1: MDM2 RING domain (UniProt Q00987); chain TQDKEESVESSLPLNAIEPCVICQGRPKNGCIVHGKTGHLMACFTCAKKLKKRNKPCPVCRQPIQMIVLTYFP
# B2: TRIM2 RING domain (UniProt Q9C040); chain VRQIDKQFLICSICLERYKNPKVLPCLHTFCERCLQNYIPAHSLTLSCPVCRQTSILPEKGV
# B3: TRIM47 RING domain (UniProt Q96LD4); chain MDGSGPFSCPICLEPLREPVTLPCGHNFCLACLGALWPHRGASGAGGPGGAARCPLCQEPFPDGLQLR
# B4: MARCHF2 RING domain (UniProt Q9P0N8); chain RLLSTVIRALDTPSDGPFCRICHEGANGECLLSPCGCTGTLGAVHKSCLEKWLSSSNTSYCELCHTEFAVEKRPRPLTEWL
# B5: TRIM28 RING domain (UniProt Q13263); chain GAEALELLEHCGVCRERLRPEREPRLLPCLHSACSACLGPAAPAAANSSGDGGAAGDGTVVDCPVCKQQCFSKDIVE
# B6: RNF11 RING domain (UniProt Q9Y3C5); chain RDGSEKKIRECVICMMDFVYGDPIRFLPCMHIYHLDCIDDWLMRSFTCPSCMEPVDAALLSS
Molecule,lacZ reporter activity
GSEEEEIPFRCFICRQAFQNPVVTKCRHYFCESCALEHFRATPRCYICDQPTGGIFNPA (RNF113B RING domain (UniProt Q8IZP6)),0
VPADASPDSKCPICLDRFDNVSYLDRCLHKFCFRCVQEWSKNKAECPLCKQPFDSIFHSV (TOPORS RING domain (UniProt Q9NS56)),0
MEEMEEELKCPVCGSFYREPIILPCSHNLCQACARNILVQTPESESPQSHRAAGSGVSDY (TRIM9 RING domain (UniProt Q9C026)),0
PLRRLQEEKLCKICMDRHIAVVFIPCGHLVTCKQCAEAVDRCPMCSAVIDFKQRVF (BIRC8 RING domain (UniProt Q96P09)),0
SNNDLASLFECPVCFDYVLPPILQCQSGHLVCSNCRPKLTCCPTCRGPLGSIRNLA (SIAH1 RING domain (UniProt Q8IUQ4)),0
EDVLSKDAGECAICLEELQQGDTIARLPCLCIYHKGCIDEWFEVNRSCPEHPSD (ZNRF2 RING domain (UniProt Q8NHG8)),0
B1 (MDM2 RING domain),0
B2 (TRIM2 RING domain),0
B3 (TRIM47 RING domain),0
B4 (MARCHF2 RING domain),0
B5 (TRIM28 RING domain),0
B6 (RNF11 RING domain),0

# Study 5
# Target: CCND1, cyclin fold, Cln2 fusion (human)
# Method: yeast growth competition, sequencing
# Sample: yeast
# Setting: strong parent motif
# Reference: not given
# Reading: higher = stronger binding
# Parent: RBL1 docking peptide (human); GSAKRRLFGEDPP
Substitution,normalised enrichment score
R6S,0.834
P13G,1.32
E10K,0.847
S2P,0.923
D11V,0.399
L7A,0.316
K4V,2.25
F8G,-0.0862
L7W,0.384
S2G,1.96
G1R,2.59
S2T,1.67
L7G,0.266
G1K,2.23
G9S,2.9
F8V,0.519
R5Q,0.15
A3F,0.49
P12H,1.27
G9H,2.01
P13L,2.27
P12I,1.61
